{"data": "Measured values gathered from unrelated publications", "note": "A part holds a random share of what one study measured."}
{"data": "Block 1", "target": "Histone acetyltransferase KAT6A, both winged helices, GST fusion (KAT6A, Homo sapiens, UniProt Q92794, residues 1-181)", "technique": "protein binding microarray", "molecule type": "double-stranded DNA, one strand shown", "medium": "in vitro", "tested at": "not given", "setting": "8-mer, flanks averaged, mean of 2 arrays, mostly near background", "baseline": "not given", "reading": "higher = stronger binding", "Construct (chain)": "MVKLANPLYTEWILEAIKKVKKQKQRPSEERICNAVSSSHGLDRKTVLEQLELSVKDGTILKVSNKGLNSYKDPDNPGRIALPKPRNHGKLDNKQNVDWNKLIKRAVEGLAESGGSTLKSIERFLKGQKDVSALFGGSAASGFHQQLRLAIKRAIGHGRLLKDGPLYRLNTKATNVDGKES"}
{"Strand": "CCTGACAG", "E-score": -0.0839}
{"Strand": "ATTACGCG", "E-score": 0.312}
{"Strand": "ACAGGCCA", "E-score": -0.122}
{"Strand": "ACCTATCT", "E-score": -0.164}
{"Strand": "AGTTGTAC", "E-score": 0.0783}
{"Strand": "CAAGCACA", "E-score": -0.176}
{"Strand": "GCAAATTA", "E-score": -0.0781}
{"Strand": "CACTGGGC", "E-score": -0.113}
{"Strand": "CGTGTCAC", "E-score": 0.183}
{"Strand": "CCATTGCG", "E-score": 0.164}
{"Strand": "GAGAAACA", "E-score": -0.0709}
{"Strand": "GACACCCC", "E-score": -0.0652}
{"Strand": "CTTACAAG", "E-score": -0.0569}
{"Strand": "ATGCGATG", "E-score": 0.0959}
{"Strand": "CTGACGCC", "E-score": 0.0691}
{"Strand": "AGCTAGTG", "E-score": -0.144}
{"Strand": "AGAGCCAT", "E-score": -0.123}
{"Strand": "GCAAGCGC", "E-score": 0.266}
{"Strand": "CGTACGTA", "E-score": 0.0718}
{"Strand": "GAGACCGC", "E-score": 0.172}
{"Strand": "AAACCTGT", "E-score": -0.153}
{"Strand": "ACTACCAG", "E-score": -0.138}
{"Strand": "ACCAGTAG", "E-score": -0.134}
{"Strand": "CACATATG", "E-score": -0.157}
{"Strand": "AACGCACG", "E-score": 0.214}
{"data": "Block 2", "target": "RING finger protein unkempt homolog, zinc fingers 1-6, SBP tag (UNK, Homo sapiens, UniProt Q9C0B0, residues 30-357)", "technique": "RNA Bind-n-Seq", "molecule type": "RNA", "medium": "in vitro", "tested at": "100 nM", "setting": "RNA with constant flanks, vertebrate orthologous sites, ends assumed", "baseline": "input RNA pool", "reading": "higher = stronger binding", "chain of UniProt Q9C0B0 (30-357, looked up)": "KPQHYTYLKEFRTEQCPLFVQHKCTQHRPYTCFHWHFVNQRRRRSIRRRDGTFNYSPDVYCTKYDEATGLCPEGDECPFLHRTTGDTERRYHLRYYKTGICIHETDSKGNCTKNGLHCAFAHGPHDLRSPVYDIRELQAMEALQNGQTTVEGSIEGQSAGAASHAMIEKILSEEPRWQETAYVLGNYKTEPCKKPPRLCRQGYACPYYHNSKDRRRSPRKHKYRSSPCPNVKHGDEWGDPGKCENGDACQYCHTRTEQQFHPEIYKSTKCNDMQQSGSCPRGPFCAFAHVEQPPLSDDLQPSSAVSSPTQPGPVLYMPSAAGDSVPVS"}
{"Strand": "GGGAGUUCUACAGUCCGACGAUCCAUGCAUAUAAAAUGUGUAUCAAACGUUGGAUAUAGAAUGAAACUGUCACUUAAAAUAGCACUGUUAUAAUUAAGCUACAAAAAGGUUUCCUUAAACCAGAGCUGCACUGCCCUCAUCUGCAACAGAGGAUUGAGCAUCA", "bound/input enrichment [ratio]": 0.933}
{"Strand": "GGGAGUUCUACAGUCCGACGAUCCCCUGGGCUUAGUGACUCUGACUGAGCUAGGCUUGUGGUGUUUUGUUUUUUGUUUUGUUUUGGUAUUUUGGGUUUUUUUGGUGUUUUUUUUGUUGUUGUUGUUGUUUUUAAUUUAAAGACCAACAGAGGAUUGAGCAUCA", "bound/input enrichment [ratio]": 1.04}
{"Strand": "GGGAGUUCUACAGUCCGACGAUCAGUUUGUUUCUAAUUUCAAGCAAAAAAAAUCUUAUUGUACUUGAAUGUGUCCUGUUUUGUUAGCACACCUAGACUUGCUGUAACUGUACUCAUGUCCCAGUAUGUACGUUCUUUCUAUGACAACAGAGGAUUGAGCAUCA", "bound/input enrichment [ratio]": 0.534}
{"Strand": "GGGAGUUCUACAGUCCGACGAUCUUCCAUUUAACCGUUCAACCAGUUGUCUCCCUGGCCUUCUUUUUCUUGCUGCCCCGAGGUUGGAUUCUUUUAUUUUUCCUUACUGGGUUUUCCACGUGAGCAUGCUGUUAGUUCUAGCCACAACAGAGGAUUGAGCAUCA", "bound/input enrichment [ratio]": 0.671}
{"Strand": "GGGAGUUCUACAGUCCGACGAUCUAUUAGUGUCAUACCAGCAUAUUAACCUCCCGUCUGUACACAGCUUCCAAUGUUACCGUCUAGUUAGAUUUUUAUUUAAAAUAUGAAAAACUGCUUUUCCCAAGACGUUUUUUAAAAACACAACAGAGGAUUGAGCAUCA", "bound/input enrichment [ratio]": 1.32}
{"Strand": "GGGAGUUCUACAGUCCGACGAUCACCAAGGGACACCCAGCGGGGCGAGGAGCCACCCCAGGCAGCGAAGGCGGGGCAGGAUCGCUGCAGCCCGGGCUGCACCCACUGCUCCGUGCACCCCUCUGCUGCACAACCAGCUGCAUUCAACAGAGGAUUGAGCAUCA", "bound/input enrichment [ratio]": 0.595}
{"Strand": "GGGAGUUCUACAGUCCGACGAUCAUGUAGUUUGUUUUUAAUUUCAAGCAAAAUCUUAUUGUACUUGAAUGUGCCCUGUUUUGUUAGCACACCUAGGCUUGCUGUAACUGUACUCAUGUCCCAGGAUGUACGUUCUUUCUAUGACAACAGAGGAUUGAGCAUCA", "bound/input enrichment [ratio]": 0.867}
{"Strand": "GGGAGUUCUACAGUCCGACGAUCAAGAUGGUGGUUGUACAUUAUUUCAUUUAGAAAAUAUAAAAACUCAUUUUGUUUUGAAGCUAGGUGUUAAACUGGAAUAGCUCUGAUACCCCAGAGAAUGGGGCAAUUGUGCCCUUCCCUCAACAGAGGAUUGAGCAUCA", "bound/input enrichment [ratio]": 1.06}
{"data": "Block 3", "target": "Fragile X messenger ribonucleoprotein 1, C-terminal low-complexity region (Fmr1, Mus musculus, UniProt P35922)", "technique": "RNA Bind-n-Seq", "molecule type": "RNA", "medium": "in vitro", "tested at": "200 nM", "setting": "whole 134-nt RNA, ends assumed", "together with": "150 mM KCl", "baseline": "input library", "reading": "higher = stronger binding"}
{"Strand": "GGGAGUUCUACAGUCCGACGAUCCAAGUCCUGUGCUACACAUCGUAUGUACCGAAUCGGGCCCCGGCCCCGGCCCCGGAAAGUAUUAUGUUACGCCGUUCGGAUCUGCACUUCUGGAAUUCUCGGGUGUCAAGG", "log2 enrichment": -0.583}
{"Strand": "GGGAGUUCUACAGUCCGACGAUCACCAUGCAGGUGGGCAUCUUUGGGAAGUGGGGCAAGGGGCGGAUAGGGAGGGGGGUAACACUUUGGGAACAGGUGGUCCCAGGUCGUUUCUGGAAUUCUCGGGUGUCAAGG", "log2 enrichment": 0.777}
{"Strand": "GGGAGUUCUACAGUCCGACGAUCAGUCCUGUGCUACACAUCGUAUGUACCGAAUCGGUUUUUGGUUUUUUUGGAAAAAGGAAAGUAUUAUGUUACGCCGUUCGGAUCUGCACUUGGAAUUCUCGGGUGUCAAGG", "log2 enrichment": -1.13}
{"Strand": "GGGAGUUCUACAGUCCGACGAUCGUCCUGUGCUACACAUCGUAUGUACCGAAUCGGGGAAAAAGGGGUGGGGAAAAAGGGGAAAGUAUUAUGUUACGCCGUUCGGAUCUGCACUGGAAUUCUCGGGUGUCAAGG", "log2 enrichment": 0.345}
{"Strand": "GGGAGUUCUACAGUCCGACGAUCACCAUGCAGGUGGGCAUCUUUGGGAAGUGGGGCAAGGGGGGGAUAGGGAGGGGGGUAACACUUAGGGAACAGGUGGUCCCAGGUCGUUUCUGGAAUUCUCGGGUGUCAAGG", "log2 enrichment": 0.701}
{"Strand": "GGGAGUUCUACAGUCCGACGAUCAGUCCUGUGCUACACAUCGUAUGUACCGAAUCGGAAAAAAAGGAAAGGAAAAAAAGGAAAGUAUUAUGUUACGCCGUUCGGAUCUGCACUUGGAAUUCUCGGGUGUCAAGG", "log2 enrichment": -0.866}
{"Strand": "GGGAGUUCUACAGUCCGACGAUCUCAAGUCCUGUGCUACACAUCGUAUGUACCGAAUCGGGCCGGGCCGGGGCCGGGGAAAGUAUUAUGUUACGCCGUUCGGAUCUGCACUUCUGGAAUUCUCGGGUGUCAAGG", "log2 enrichment": 0.256}
{"Strand": "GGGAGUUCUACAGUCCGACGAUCCACAGACAACACGCACCCACACAGACACAGAGGGAAGGGGUUGGGAUGGGGACAGGGUGCACAGCAGGGCGGGGUUGGACCCCAGCCCCUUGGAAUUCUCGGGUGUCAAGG", "log2 enrichment": 1.33}
{"Strand": "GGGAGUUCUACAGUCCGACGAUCUGGCCAUGGUGGCAUGCGGGGAGGAAGAGGUGGCCUCAUGGAUCGUGGUGGUCCCGGUGGAAUGUUCAGAGGUGGCCGUGGUGGAGACAGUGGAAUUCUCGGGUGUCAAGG", "log2 enrichment": 0.178}
{"data": "Block 4", "target": "RNA binding protein fox-1 homolog 2, RRM domain, GST-SBP tag (RBFOX2, Homo sapiens, UniProt O43251-10, residues 100-194)", "technique": "RNA Bind-n-Seq", "molecule type": "RNA", "medium": "in vitro", "tested at": "365 nM", "setting": "natural RNA segment, single round, ends assumed", "baseline": "no-protein control", "reading": "higher = stronger binding", "Target sequence (chain)": "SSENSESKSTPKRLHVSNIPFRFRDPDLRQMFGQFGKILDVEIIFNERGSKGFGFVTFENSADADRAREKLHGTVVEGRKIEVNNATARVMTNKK"}
{"Strand": "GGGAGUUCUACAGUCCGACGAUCUCCUUGCCUUCCCCACUCCUGUGUCCUCCCAUCUAUCCUGUCUUUCCUUUCCUCCUCUCAGUGUCCUCAGCACCCACAAGGAAUUUUCCUAUCACUGUGAACUUUGCUGGUGGAAUUCUCGGGUGCCAA", "RBNS enrichment (R)": 1.4}
{"Strand": "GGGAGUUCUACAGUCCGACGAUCGUAUUGCCUAUUCUUCAAGUACACAAAAACAUUUUGGAGGCCUCAAUUAUGAGUGGCAGAGCUUUCUGUGUAUAAUUUGUCUACAUAAUUUGUCUAAUAAAAAUGUUUUCUGGAAUUCUCGGGUGCCAA", "RBNS enrichment (R)": 0.945}
{"Strand": "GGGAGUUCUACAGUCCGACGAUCCCCUAGAGUCAUGCCUGGAUCCACAACUCCACAGGUAUCUGCAGCAUUUUCUACCUGGCCCUAUCGCUGAGAGCCCCUCCCCAUGGCUCACUGAGGAGCACUCAGCCAGCUGGAAUUCUCGGGUGCCAA", "RBNS enrichment (R)": 0.735}
{"Strand": "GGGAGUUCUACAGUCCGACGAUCUUUUUCAUUUUAAUCUUUUUUGACUUUUUUUUAGUUAACCAUUUUUUAUGCAUAAGUGCUCAAAUGCAUUUCUCUUUCUUUCGAAACUAGUUAAUCGUUAAGUUGACAAUUGGAAUUCUCGGGUGCCAA", "RBNS enrichment (R)": 0.959}
{"Strand": "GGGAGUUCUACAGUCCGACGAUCUUAAAUAUCUAUUUAAAAGAUAGGAAGCUGCUUAUAUAUUUAAUAAUAAAAGAAGUGCACAAGCUGCCAUGUGAGUCGUGGGAAAGUUGCUUUUGGGGUGUGGGUGGCAAUGGAAUUCUCGGGUGCCAA", "RBNS enrichment (R)": 1.01}
{"Strand": "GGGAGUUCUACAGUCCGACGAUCUUCCAUUACAUCUGAGGAUUCCAGAGUCCUCUGUUCAUCCCUGGGAUAGAGUGAGCCCUCUUGCGUCUUCCAGGGUAGCUCAGGUUGGCCCAGUUUGGGCCAGUCCAUUUUGGAAUUCUCGGGUGCCAA", "RBNS enrichment (R)": 0.168}
{"Strand": "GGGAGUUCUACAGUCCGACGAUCAAAAGUCCUGUAUUUAUGUAUUUUUUGGAUUCAGUGUGAGGCAUUGAAUUAAAGAUACCGAUUAAAGAUUCUACCCUACAAAUCAUGUGUAUUUGUAUAUUUUAGGUUAAUGGAAUUCUCGGGUGCCAA", "RBNS enrichment (R)": 0.426}
{"Strand": "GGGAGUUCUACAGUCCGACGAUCGCCUUCAAAGAACGAUGAACUUAACCCCAGCUCCUGCCUUCCGACUUGGCUCCAGCCCCUUCUCCUACCACCUCUAUUUAUUAUACAUCAGGGUUGGAGUGGGGGUUGGUUGGAAUUCUCGGGUGCCAA", "RBNS enrichment (R)": 0.46}
{"note": "For quick reference, copied from above (block 1):"}
{"Strand": "CTGACGCC", "E-score": 0.0691}
{"Strand": "ACCAGTAG", "E-score": -0.134}
{"Strand": "CGTGTCAC", "E-score": 0.183}
